Measurements from different studies.
Each numbered part is a random draw from the data of one study; scales do not carry over between parts. Changes are numbered by the printed parent chain.

Set 1 — technique: RNA Bind-n-Seq; form: RNA; matrix: in vitro; concentration: 20 nM; notes: 6-mer, flanks averaged, single round; with: 150 mM LiCl; relative to: input library; reading: higher = stronger binding
Target: TAR DNA-binding protein 43, full length, His tag (TARDBP, Homo sapiens, UniProt Q13148, residues 1-414)
Sequence | 6-mer enrichment (R)
GACAAG | 0.904
AUUACG | 0.872
GUGAGA | 1.2
CUUCCG | 0.831
ACUGGA | 0.88
GCGCCA | 0.964
CCAUGC | 0.921
UUAGAA | 0.982
GAAAUC | 0.794
AAGCAC | 0.835
GCGUAA | 0.936
CAAGCU | 0.819
GGGCUG | 1.19
UGAACU | 0.931
CUUUAU | 1.07
ACUAUU | 0.95
AACCUU | 0.895
CGUGGA | 1.02
AUUAGU | 0.988
GUAGGA | 1.03
CCGUCC | 0.912
AGGGAA | 0.985
AUCGUA | 0.879
ACAUAG | 0.843
UAGACG | 0.896

Set 2 — technique: RNA Bind-n-Seq; form: RNA; matrix: in vitro; concentration: not given; relative to: input RNA pool; reading: higher = stronger binding
Target: RING finger protein unkempt homolog, zinc fingers 1-6, GST-SBP tag (UNK, Homo sapiens, UniProt Q9C0B0, residues 30-357)
Notes: RNA with constant flanks, human and mouse sites, ends assumed
Constant ends, left off below: GGGAGUUCUACAGUCCGACGAUC … CAACAGAGGAUUGAGCAUCA
Construct (chain): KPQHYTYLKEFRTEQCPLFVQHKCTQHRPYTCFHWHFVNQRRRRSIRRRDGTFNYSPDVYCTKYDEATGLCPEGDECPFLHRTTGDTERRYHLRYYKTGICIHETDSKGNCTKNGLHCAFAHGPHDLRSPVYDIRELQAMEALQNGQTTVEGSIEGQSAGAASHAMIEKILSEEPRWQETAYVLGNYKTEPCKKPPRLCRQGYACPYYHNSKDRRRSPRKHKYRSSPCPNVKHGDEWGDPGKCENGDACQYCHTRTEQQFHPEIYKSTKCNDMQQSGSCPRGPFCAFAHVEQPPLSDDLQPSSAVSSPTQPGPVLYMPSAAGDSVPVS
Sequence | bound/input enrichment [ratio]
CAAAAUGCUUCAAGUGAUAACCAAGGAAUUCAAUUAAGUGCAGUUCAAGCUGCUAGGAAGCUUUUAUCCAGUGAUCGAAAUCCACCAAUUGAUGACUUAAUAAAAUCUGGAAUAUUGCCU | 0.333
AAGAAAGUACAUAGCCAAGGUAACCCAUCAAAAGCAGCUCCUAGGGAAAGAGAGCCAAUUCAGCGAGGAGCCCAGGAAGUAAGUGUAGACUCUGAAGUGAGUCGGAAAGCACUCUCUAGG | 0.522
AUUCUUGAUCAAUGUGACAGGUAACUGCCCAGCUCUGUGUAUAAGGCAAACAUAGACUCUUGUUUUCCUCUUUCCUAUUCAUAUCAUUCAGUGAUGUUGUUAUUAAAACAGUAUUUCAUC | 0.168
CAGUCUUUAAGUAUGCCAGCAUCUCUUGGAAGGAUGAACCAGGGUACUGCACGCCUUGCUAGUUUAAUGAAUCUUGGAAUGAGUUCUUCAUUGAAUCAACAAGGAGCUCAUAGUGCACUG | 0.173
ACACCCUGGUUCUGGGCCAGAGAUAAAACCAAUACCUGGUCUGGGCCCAGGGAAGAUCCCAAUAGCAGGUCCAGGUUUAGGUCUAAGAAAGAAGUCUAUGUUGAAUCAAGUUCUGGAUCU | 0.145
AAACCUGUGGGCUUUGGAGAAGAGUUCGACGAGGAUGAGCUCAUGGCAGAGUUGGAGGAACUUGAACAAGAGGAGUUGGACAAGAAUUUGUUGGAGAUCAGUGGGCCCGAAACAGUCCCU | 0.311
GAGAAAGGGGAGAUGCAGGUUGUUCCAGUUUUGGUGCAUCUCCUGUCUGCCAUCAGCACUGUCAGGCUCUAUAUUCCAAAAGACCUUCGACCUGUGGACAACAGACAGAGUGUCUUAAAA | 0.0605
AUGCAGAGCAAGAGAAAAGGAGAAGGGGGCACAGACCCGGAACUAGAGGGUGAGCUAGAUAGCCGGUAUGCCCGCCGCAGGUACUACCGACUUUUGCAGAGUCCUCUGUGCGCAGGAUGU | 0.642
GAUGAACCGGCCAUCAUUGUACAUCCAAAUUGGGCUGCAAAAAGUGGCAAGUUUGAUUGUAGCAUCAUGUCUUUGAGUGUCCUAUUGGACUACAGAUUAGAGGAUAAUAAAGAACAUUCA | 0.255
AAAAAUUUGCAAGAAGAAAUUGACGCCUUAGAAUCCAGAGUGGAAUCAAUUCAGCGAGUGUUAGCAGAUUUGAAAGUUCAGUUGUAUGCAAAAUUCGGGAGCAACAUAAACCUUGAAGCU | 0.505
UGUGCACGCACACUUAAGUGCAUGCAUGGAAGGUGCCUGGGCUGUCUUUGCUAUAUGUAAAUAGGGCCACUGGAUCUUUAUUUUUGAUUAAUUUGUUCUGAUUUUUUUUUUGGUUUGUUU | 2.25

Set 3 — technique: protein binding microarray; form: double-stranded DNA, one strand shown; matrix: in vitro; concentration: not given; relative to: not given; reading: higher = stronger binding
Target: Histone acetyltransferase KAT6A, winged helix 2, GST fusion (KAT6A, Homo sapiens, UniProt Q92794, residues 85-181)
Notes: 8-mer, flanks averaged, mean of 2 arrays, mostly near background
Target sequence (chain): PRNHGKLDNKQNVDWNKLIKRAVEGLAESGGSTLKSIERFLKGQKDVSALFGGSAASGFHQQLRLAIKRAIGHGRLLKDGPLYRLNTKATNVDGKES
Sequence | E-score
ATCATCGG | 0.0529
CGATACGA | -0.0609
CAGGTAGA | -0.101
CCTCTACG | -0.00495
CTAAAGAG | -0.0238
CCTGTGCA | -0.103
GGCTCTTA | 0.0304
AATACTCC | -0.177
AGAGAGTC | -0.21
AGTGAAAT | 0.0353
CCGGCACA | 0.153
AGAAGATC | -0.112
AGAAAGAC | -0.0427
TCATCCAA | 0.0291
ACTCTACG | -0.046
AACGCTCT | -0.152
CACGCCAA | 0.14
CGGTCCTA | -0.132
ACCAATGA | -0.233
CCACCGGA | 0.193
AATTTGCG | 0.0418
ACAAGAGG | -0.0736
ACCATTAT | -0.135
CCAATAAA | -0.0754
GACAATAC | 0.0676

Set 4 — target: CCNF, cyclin fold, Cln2 fusion (human); technique: yeast growth competition, sequencing; matrix: yeast; notes: strong parent motif; relative to: not given; reading: higher = stronger binding
Parent: CDC6 docking peptide (human); TLKGRRLVFDNQL
Variant | normalised enrichment score
R6K | 8.25
V8R | 8.17
L7D | 0.552
D10H | 8.13
R5K F9L | 2.63
G4I | 4.64
G4N | 5.35
R6W | 2.2
L2F | 5.55
G4Q | 8.24
K3A | 7.05
N11W | 9.59
R5S | -0.27
F9S | 0.88
G4M | 4.2
K3S | 7.29
V8K | 7.42
F9A | 0.529
V8I | 9.92
L7S | 0.394
R6E | 4.3
L13V | 8.93
R6Y | 4.83
L7R | 1.69
F9M | 6.92

Set 5 — technique: RNA Bind-n-Seq; form: RNA; matrix: in vitro; concentration: 200 nM; notes: whole 134-nt RNA, ends assumed; with: 150 mM KCl; relative to: input library; reading: higher = stronger binding
Target: Ras GTPase-activating protein-binding protein 1, full length (G3BP1, Homo sapiens, UniProt Q13283)
UniProt Q13283, sequence (whole entry, looked up): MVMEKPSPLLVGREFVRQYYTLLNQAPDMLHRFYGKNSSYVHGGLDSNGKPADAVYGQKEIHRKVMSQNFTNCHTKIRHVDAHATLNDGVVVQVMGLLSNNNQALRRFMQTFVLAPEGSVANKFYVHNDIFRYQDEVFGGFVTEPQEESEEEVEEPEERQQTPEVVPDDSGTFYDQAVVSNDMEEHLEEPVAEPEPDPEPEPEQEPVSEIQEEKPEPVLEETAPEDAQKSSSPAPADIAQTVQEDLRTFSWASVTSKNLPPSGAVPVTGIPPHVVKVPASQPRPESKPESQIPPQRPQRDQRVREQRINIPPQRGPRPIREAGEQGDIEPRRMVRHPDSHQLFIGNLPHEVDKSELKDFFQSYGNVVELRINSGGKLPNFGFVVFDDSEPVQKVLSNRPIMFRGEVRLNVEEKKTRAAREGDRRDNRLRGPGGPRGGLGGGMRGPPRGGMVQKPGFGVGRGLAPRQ
Constant ends, left off below: GGGAGUUCUACAGUCCGACGAUC … UGGAAUUCUCGGGUGUCAAGG
Sequence | log2 enrichment
AAGUCCUGUGCUACACAUCGUAUGUACCGAAUCGGGCCCCGGGCCCCGGCCCCGGGGAAAGUAUUAUGUUACGCCGUUCGGAUCUGCACU | -1.26
UCAAGUCCUGUGCUACACAUCGUAUGUACCGAAUCGGUUUGGGUUUGGGUUUGGGAAAGUAUUAUGUUACGCCGUUCGGAUCUGCACUUC | -0.788
AAGUCCUGUGCUACACAUCGUAUGUACCGAAUCGGGAAAAGGGGAAAAGGAAAAGGAAAGUAUUAUGUUACGCCGUUCGGAUCUGCACUU | -0.932
ACCAUGCAGGUGGGCAUCGUUGGGAAGUGGGGCAAGGGGGGGAUAGGGAGGGGGGUAACACUUUGGGAACAGGUGGUCCCAGGUCGUUUC | 0.832
AAGUCCUGUGCUACACAUCGUAUGUACCGAAUCGGGCCCCGGCCCCGGGCCCCGGGAAAGUAUUAUGUUACGCCGUUCGGAUCUGCACUU | -1.14
UGGGAGGUGGAUUUUCUUUAUUUUUUUAGCUCAUUUCCAGGGGUGGGAAUUUUUUUUUAAUAUGUGUCAUGAAUAAAGUUGUUUUUGAAA | 0.228
UGGCCCUGGUGGCAUGCGGGGAGGAAGAGGUGGCCUCAUGGAUCGUGGUGGUCCCCGUGGAAUGUUCAGAGGUGGCCGUGGUGGAGACAG | -0.162
UGAAGGCGCGGCCCUUCCCCGACGGCCUGGCCGAGGACAUCGAUAAAGGCGAGGUGUCCGCCCGUCAGGAGCUCAAGCAGCGGGCGCGCU | -0.546
UGGCCCUGGUGGCAUGCGGGGAGGAAGAGGUGGCCUCAUAGAUCGUGGUGGUCCCGGUGGAAUGUUCAGAGGUGGCCGUGGUGGAGACAG | 0.217
GCAAGAAGUAAAAACAAAUGGAAAUGCUUCGGAUAGUGGCAGGGGUGGGGGUUGCUAAGGAAAGGGUGGGAUGGGAGUGGGUAAAGAGUU | 0.779
AGUCCUGUGCUACACAUCGUAUGUACCGAAUCGGGAGGGAAAAAGGGUUUUUUUGGGAAAGUAUUAUGUUACGCCGUUCGGAUCUGCACU | -0.0293
GUCCUGUGCUACACAUCGUAUGUACCGAAUCAAAUUUUUUUAAAUUUAAAUUUUUAAAAAAGUAUUAUGUUACGCCGUUCGGAUCUGCAC | -1.45
CUGUGCUACACAUCGUAUGUACCGAAUCGGGCCCCCCCGGGGCCCCCCCGGCCCCCCCGGGGAAAGUAUUAUGUUACGCCGUUCGGAUCU | -1.48
CACAGACAACACGCACCCACACAGACACAGAGGGAAGGGGUUGGGAUGGGGACAGGGUGCACAGCAGGGCGGGGUAGGACCCCAGCUCCU | 1.92

Set 6 — technique: universal PBM; form: double-stranded DNA, one strand shown; matrix: in vitro; concentration: not given; reading: higher = stronger binding
Target: Sal-like protein 4, full length isoform B (SALL4, Homo sapiens, UniProt Q9UJQ4-2, residues 1-616)
Notes: 8-mer, flanks averaged, mean of replicates
Residues (chain): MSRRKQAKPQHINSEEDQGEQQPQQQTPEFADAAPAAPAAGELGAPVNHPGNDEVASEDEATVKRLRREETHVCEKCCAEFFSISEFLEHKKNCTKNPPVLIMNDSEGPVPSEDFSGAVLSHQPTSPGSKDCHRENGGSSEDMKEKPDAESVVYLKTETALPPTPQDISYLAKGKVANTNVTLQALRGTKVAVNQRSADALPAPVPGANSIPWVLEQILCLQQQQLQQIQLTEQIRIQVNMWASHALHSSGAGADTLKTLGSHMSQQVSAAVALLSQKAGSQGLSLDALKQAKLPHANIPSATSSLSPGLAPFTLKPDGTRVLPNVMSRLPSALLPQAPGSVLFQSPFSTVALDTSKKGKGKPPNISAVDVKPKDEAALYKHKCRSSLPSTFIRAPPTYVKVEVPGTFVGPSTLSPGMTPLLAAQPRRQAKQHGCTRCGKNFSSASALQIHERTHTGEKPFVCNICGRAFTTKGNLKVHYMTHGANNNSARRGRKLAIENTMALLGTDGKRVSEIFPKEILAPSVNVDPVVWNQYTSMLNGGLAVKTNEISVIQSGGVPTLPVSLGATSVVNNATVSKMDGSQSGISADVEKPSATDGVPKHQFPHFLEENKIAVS
Sequence | E-score
GAATACTC | 0.0191
ATGCCATG | 0.0713
GTATACAA | 0.28
CATTTAGA | 0.0614
GGAAATCC | -0.104
CTCCGAAA | 0.0719
AATCACTC | 0.131
AAACCATT | 0.189
ACTATACT | 0.181
AGATTAAG | 0.131
AGGTAGGC | -0.077
CACATTAG | 0.0615
ACTACGGA | -0.0472
CGGTGTGA | -0.342
CCCTTCAC | -0.0914
CATATTCG | 0.231
TATCACGA | 0.134
CTCCGAAC | -0.268
CGTATCCA | -0.00772
ACGTCGAT | 0.021
ACTATGCC | 0.152
AACCCCCT | -0.0958
ACTTTAGG | 0.0401
CACAGCTA | -0.0487
CGACGTCC | -0.299

Single results of other studies
Substance | target | assay | test system | conditions | how to read | quantity | value
PhoQ, residues 284 288 289 292 302 303 GNNTDL | PhoP, residues 12 14 15 18 19 AQCLL (Escherichia coli, UniProt P23836) | Sort-seq, item: YFP reporter | E. coli | PhoQ-PhoP variant library, with: 10 µM Mg2+ | relative to: high Mg2+ state, higher = stronger signaling | fold induction | 1.18

Excerpt of the above (set 6):
Sequence | E-score
CACATTAG | 0.0615
ACTACGGA | -0.0472
CGGTGTGA | -0.342
CCCTTCAC | -0.0914
CATATTCG | 0.231
TATCACGA | 0.134
CTCCGAAC | -0.268
